Published values gathered from unrelated publications.
A part holds a random share of what one study measured. Several values in a cell are separate wells, animals, samples, runs or records.
Sequence of UniProt Q9UQM7 (whole entry, looked up): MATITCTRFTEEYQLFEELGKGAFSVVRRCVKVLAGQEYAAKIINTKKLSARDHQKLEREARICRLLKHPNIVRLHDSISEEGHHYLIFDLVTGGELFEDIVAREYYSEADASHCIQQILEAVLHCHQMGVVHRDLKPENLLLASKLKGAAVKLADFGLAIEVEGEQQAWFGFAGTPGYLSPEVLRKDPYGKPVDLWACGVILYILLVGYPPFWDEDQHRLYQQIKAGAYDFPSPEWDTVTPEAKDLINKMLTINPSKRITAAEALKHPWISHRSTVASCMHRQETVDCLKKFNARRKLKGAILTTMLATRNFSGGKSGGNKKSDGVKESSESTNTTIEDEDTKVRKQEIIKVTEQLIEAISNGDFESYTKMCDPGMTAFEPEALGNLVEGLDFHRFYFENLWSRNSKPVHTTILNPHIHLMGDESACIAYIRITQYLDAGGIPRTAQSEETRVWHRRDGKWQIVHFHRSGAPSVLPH
Sequence of UniProt Q96GD4 (whole entry, looked up): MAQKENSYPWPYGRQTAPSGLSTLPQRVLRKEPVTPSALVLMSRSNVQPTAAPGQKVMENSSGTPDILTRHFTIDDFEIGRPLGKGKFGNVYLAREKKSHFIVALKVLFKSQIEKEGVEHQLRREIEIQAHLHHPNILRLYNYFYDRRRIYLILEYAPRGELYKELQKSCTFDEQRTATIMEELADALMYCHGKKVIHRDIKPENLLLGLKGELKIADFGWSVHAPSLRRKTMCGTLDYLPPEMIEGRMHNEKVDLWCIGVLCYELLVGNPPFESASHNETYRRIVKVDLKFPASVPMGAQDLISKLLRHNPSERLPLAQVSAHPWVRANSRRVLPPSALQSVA
Sequence of UniProt P78362 (whole entry, looked up): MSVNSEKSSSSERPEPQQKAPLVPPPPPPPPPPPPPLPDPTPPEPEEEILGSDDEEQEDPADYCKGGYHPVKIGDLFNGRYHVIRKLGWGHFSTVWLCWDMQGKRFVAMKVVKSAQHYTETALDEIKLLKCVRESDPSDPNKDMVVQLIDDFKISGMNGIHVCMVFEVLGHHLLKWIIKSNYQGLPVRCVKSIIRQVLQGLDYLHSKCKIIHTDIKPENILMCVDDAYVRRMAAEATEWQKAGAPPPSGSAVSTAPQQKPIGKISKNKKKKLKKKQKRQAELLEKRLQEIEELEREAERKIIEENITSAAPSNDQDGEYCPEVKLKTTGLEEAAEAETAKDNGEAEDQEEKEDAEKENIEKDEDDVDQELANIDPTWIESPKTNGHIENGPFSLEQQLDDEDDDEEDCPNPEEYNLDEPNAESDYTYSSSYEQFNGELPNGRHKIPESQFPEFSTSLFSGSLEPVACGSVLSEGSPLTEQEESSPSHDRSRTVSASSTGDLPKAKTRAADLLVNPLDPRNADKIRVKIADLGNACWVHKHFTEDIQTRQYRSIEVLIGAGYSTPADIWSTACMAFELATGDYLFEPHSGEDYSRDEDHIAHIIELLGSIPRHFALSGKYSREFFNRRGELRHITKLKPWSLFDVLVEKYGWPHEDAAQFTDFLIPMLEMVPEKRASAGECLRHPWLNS
Sequence of UniProt P04629 (whole entry, looked up): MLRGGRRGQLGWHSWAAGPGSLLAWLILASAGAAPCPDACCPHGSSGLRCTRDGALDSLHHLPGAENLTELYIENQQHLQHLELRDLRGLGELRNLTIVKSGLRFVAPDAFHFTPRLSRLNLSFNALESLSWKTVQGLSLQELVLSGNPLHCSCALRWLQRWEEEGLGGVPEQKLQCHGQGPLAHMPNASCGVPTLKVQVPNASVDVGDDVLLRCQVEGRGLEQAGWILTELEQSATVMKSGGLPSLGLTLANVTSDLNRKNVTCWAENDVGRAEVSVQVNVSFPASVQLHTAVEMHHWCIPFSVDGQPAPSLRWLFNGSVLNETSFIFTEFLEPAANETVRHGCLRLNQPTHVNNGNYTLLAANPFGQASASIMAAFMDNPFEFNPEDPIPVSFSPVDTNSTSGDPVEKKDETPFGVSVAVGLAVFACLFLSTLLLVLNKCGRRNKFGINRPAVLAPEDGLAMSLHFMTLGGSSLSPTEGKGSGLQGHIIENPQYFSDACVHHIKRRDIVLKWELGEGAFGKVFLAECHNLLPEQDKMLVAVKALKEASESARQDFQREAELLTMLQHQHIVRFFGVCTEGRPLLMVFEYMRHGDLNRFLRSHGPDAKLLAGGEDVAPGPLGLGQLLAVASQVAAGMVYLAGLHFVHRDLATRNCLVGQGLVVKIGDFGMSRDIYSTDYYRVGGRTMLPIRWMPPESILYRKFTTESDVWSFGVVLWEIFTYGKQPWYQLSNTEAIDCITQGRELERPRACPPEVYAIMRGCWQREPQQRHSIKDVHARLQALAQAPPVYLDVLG
Sequence of UniProt Q13043 (whole entry, looked up): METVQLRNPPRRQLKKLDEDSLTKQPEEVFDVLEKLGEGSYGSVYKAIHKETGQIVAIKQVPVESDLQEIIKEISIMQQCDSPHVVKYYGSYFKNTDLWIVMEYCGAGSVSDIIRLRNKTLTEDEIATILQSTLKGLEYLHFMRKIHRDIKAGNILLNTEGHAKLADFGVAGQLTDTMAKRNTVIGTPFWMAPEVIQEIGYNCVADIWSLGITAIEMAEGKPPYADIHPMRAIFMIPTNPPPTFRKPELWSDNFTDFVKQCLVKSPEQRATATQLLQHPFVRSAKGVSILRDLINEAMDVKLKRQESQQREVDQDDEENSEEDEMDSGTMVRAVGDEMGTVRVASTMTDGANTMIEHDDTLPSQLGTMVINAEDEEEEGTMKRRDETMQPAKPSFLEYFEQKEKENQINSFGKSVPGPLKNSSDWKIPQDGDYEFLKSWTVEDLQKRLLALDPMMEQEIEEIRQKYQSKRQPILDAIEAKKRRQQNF
Sequence of UniProt O15111 (whole entry, looked up): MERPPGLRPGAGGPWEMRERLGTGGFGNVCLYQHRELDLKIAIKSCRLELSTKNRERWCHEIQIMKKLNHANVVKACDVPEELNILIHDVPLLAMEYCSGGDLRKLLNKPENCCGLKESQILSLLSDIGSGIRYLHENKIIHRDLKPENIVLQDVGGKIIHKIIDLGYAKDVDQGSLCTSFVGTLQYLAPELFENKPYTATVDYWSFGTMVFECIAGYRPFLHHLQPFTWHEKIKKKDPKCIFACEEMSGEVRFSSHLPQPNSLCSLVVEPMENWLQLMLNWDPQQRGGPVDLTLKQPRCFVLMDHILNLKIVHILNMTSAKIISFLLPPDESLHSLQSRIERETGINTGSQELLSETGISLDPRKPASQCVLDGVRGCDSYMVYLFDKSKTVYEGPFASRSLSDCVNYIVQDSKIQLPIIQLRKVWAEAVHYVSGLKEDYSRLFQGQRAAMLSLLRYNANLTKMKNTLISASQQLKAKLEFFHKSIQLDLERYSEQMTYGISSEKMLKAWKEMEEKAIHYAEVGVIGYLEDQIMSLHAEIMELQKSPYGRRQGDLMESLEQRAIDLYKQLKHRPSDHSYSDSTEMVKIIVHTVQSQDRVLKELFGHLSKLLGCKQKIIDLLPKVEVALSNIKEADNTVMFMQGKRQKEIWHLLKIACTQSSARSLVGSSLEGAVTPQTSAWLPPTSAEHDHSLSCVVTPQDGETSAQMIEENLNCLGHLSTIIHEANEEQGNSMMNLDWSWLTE
Sequence of UniProt P43403 (whole entry, looked up): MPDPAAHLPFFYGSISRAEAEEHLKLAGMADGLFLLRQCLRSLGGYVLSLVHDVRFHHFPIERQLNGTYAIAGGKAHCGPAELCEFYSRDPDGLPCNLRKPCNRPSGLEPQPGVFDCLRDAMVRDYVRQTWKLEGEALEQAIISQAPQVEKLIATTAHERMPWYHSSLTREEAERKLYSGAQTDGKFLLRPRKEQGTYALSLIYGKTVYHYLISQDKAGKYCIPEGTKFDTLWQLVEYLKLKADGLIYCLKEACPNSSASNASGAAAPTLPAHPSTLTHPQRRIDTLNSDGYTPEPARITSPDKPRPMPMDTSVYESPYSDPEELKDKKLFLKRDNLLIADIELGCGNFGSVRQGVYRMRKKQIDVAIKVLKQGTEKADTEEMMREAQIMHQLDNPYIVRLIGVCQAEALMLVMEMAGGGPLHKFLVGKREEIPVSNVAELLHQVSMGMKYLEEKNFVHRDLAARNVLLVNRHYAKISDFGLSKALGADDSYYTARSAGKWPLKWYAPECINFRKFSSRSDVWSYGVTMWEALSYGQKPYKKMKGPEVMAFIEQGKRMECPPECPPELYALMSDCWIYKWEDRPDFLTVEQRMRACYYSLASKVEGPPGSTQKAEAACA
Sequence of UniProt P08588 (whole entry, looked up): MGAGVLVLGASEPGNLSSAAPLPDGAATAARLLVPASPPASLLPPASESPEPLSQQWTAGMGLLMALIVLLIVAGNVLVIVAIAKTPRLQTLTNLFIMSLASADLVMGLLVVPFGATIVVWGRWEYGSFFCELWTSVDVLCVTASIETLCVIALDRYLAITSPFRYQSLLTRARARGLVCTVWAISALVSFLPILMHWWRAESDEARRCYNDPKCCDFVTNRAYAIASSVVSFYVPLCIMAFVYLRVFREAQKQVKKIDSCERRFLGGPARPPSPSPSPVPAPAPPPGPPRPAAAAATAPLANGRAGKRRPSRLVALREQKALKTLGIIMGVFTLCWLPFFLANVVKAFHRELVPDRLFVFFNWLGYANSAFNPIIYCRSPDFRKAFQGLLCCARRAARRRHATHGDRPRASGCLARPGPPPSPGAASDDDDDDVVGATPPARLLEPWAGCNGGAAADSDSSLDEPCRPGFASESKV

Series 1 — medium: plasma; measurement: Cmax
SMILES: O=C1CCC(N2Cc3c(ccc4c3OCC43CCN(Cc4ccccc4)CC3)C2=O)C(=O)N1 (stereo not shown)
male CD-1 mouse; oral, 3 mg/kg: 398 ng/mL
male ICR mice; oral, 3.0 mg/kg: 340 ng/mL
male ICR mice; intravenous, 1.0 mg/kg: 314 ng/mL and 263 ng/mL
ICR mouse, male; intravenous, 1.0 mg/kg: 320 ng/mL
male Sprague-Dawley rat; intravenous, 1 mg/kg: 374 ng/mL
male Sprague-Dawley rat; oral, 3 mg/kg: 263 ng/mL

Series 2 — technique: CCK-8; measurement: survival
Compound: CC[C@@H](C)c1nc2cc(Nc3ccnc4ccc(S(=O)(=O)C(C)C)cc34)ccc2s1.Cl
L929 RIPK3-/- reexpressing RIPK3 K51A; 50 µM, added: zVAD: 26.1% and 51.5% and 65% and 67.9% and 58.7%
L929 RIPK3-/- reexpressing RIPK3 K51A/R69H; 3.125 µM: 99.2% and 98.2% and 91.7% and 88.8% and 89.8%
L929 RIPK3-/- reexpressing RIPK3 K51A/R69H; 50 µM, added: zVAD: 33.5% and 30.7% and 41% and 35.7%
L929 RIPK3-/- reexpressing RIPK3 K51A/R69H; 50 µM: 52.4% and 39.9% and 34.2% and 33.5%
L929 RIPK3-/- reexpressing RIPK3 K51A; 6.25 µM: 99.1% and 99.2% and 96.3% and 105%
L929 RIPK3-/- reexpressing RIPK3 K51A/R69H; 25 µM: 82.3% and 81.7% and 89.3% and 80%
L929 RIPK3-/- reexpressing RIPK3 K51A; 3.125 µM: 97.7% and 97.3% and 103% and 90.8%
L929 RIPK3-/- reexpressing RIPK3 K51A/R69H; 12.5 µM: 92.5% and 98.6% and 98.4% and 102%

Series 3 — observed: enzyme activity; action: inhibitor; concentration: 0.5 µM; relative to: control; measurement: remaining activity
Compound: O=C1NC(=O)c2c1c1c3ccccc3n3c1c1c2c2ccccc2n1[C@H]1CC[C@@H]3O1
Tyrosine-protein kinase SYK (SYK, Homo sapiens, UniProt P43405): 15.8%
Serine/threonine-protein kinase 4 (STK4, Homo sapiens, UniProt Q13043): 3.56%
Serine/threonine-protein kinase pim-3 (PIM3, Homo sapiens, UniProt Q86V86): 0.238%
Platelet-derived growth factor receptor alpha (PDGFRA, Homo sapiens, UniProt P16234): 32.8%
Inhibitor of nuclear factor kappa-B kinase subunit alpha (CHUK, Homo sapiens, UniProt O15111): 106%
Testis-specific serine/threonine-protein kinase 1 (TSSK1B, Homo sapiens, UniProt Q9BXA7): 17.7%
Aurora kinase B (AURKB, Homo sapiens, UniProt Q96GD4): 9.52%
Tyrosine-protein kinase ZAP-70 (ZAP70, Homo sapiens, UniProt P43403): 88.4%
Protein-tyrosine kinase 6 (PTK6, Homo sapiens, UniProt Q13882): 83.9%
High affinity nerve growth factor receptor (NTRK1, Homo sapiens, UniProt P04629): 4.98%
Focal adhesion kinase 1 (PTK2, Homo sapiens, UniProt Q05397): 23.5%
Mitogen-activated protein kinase kinase kinase 7 (MAP3K7, Homo sapiens, UniProt O43318): 6.06%
Calcium/calmodulin-dependent protein kinase type II subunit alpha (CAMK2A, Homo sapiens, UniProt Q9UQM7): 2.84%
Cyclin-dependent kinase 6, with cyclin D1 (CDK6, Homo sapiens, UniProt Q00534): 6.06%
Dual specificity protein kinase TTK (TTK, Homo sapiens, UniProt P33981): 76.4%
Serine/threonine-protein kinase haspin (HASPIN, Homo sapiens, UniProt Q8TF76): 18.5%
SRSF protein kinase 2 (SRPK2, Homo sapiens, UniProt P78362): 107%
Serine/threonine-protein kinase 3 (STK3, Homo sapiens, UniProt Q13188): 3.22%

Series 4 — observed: enzyme activity; action: inhibitor; concentration: 10 µM; measurement: inhibition
Target: Calcium/calmodulin-dependent protein kinase type II subunit alpha (CAMK2A, Homo sapiens, UniProt Q9UQM7)
Nc1nc(N)nc(NC2CC2)n1: -19%
NCC(O)c1ccccc1 (stereo not shown): -7%
O=C/C=C/c1ccccc1: 7%
O=C(O)[C@H]1O[C@@H](Oc2cc3oc(-c4ccc(O)cc4)cc(=O)c3c(O)c2O)[C@H](O)[C@@H](O)[C@@H]1O: -1%
COC1=CC(=O)O[C@@H](CCc2ccccc2)C1: 32%
CCN1C[C@]2(C)CC[C@H](OC)[C@]34[C@@H]5C[C@@H]6CC[C@](O)([C@@H]([C@@H](OC(=O)c7ccccc7)[C@H]23)[C@@H]14)[C@H]5C(=O)O6: 14%
CC(C)(C)CC(C)(C)c1ccc(O)cc1: 13%

Mixed results
CN(C)c1ncnc(-c2ccc3nc(Nc4cc(CN5CCN(C(=O)CC(F)(F)F)CC5)ccn4)[nH]c3c2)c1Cl — remaining binding (Calcium-dependent protein kinase 1 (CDPK1, Plasmodium falciparum, UniProt P62344); cell-free assay, competition with immobilised ligand; 1 µM): 100%
CC(C)[C@]12O[C@H]1[C@@H]1O[C@]13[C@]1(O[C@H]1C[C@H]1C4=C(CC[C@@]13C)C(=O)OC4)[C@@H]2O — inhibition (Sarcocystis neurona; parasite growth; GFP/luciferase reporter; 10 µM, hit confirmation screen): 97.8%
CNC(=O)c1cc(C(=O)NC2CC2)cn(Cc2ccccc2)c1=O — inhibition (Beta-1 adrenergic receptor (ADRB1, Homo sapiens, UniProt P08588); binding, radioligand binding; 10 µM): -6.19%
CN1C(=O)CN=C(c2ccccc2)c2cc(Cl)ccc21 — inhibition (Sarcocystis neurona; parasite growth; GFP/luciferase reporter; 10 µM, hit confirmation screen): -0.9%

For quick reference, copied from above (series 3):
Cyclin-dependent kinase 6, with cyclin D1 (CDK6, Homo sapiens, UniProt Q00534): 6.06%
Testis-specific serine/threonine-protein kinase 1 (TSSK1B, Homo sapiens, UniProt Q9BXA7): 17.7%
Focal adhesion kinase 1 (PTK2, Homo sapiens, UniProt Q05397): 23.5%
